Experimental data pooled from the literature.
A part holds a random share of what one study measured.

Study 1
Target: Interferon regulatory factor 5, full length, phosphomimetic (IRF5, Homo sapiens, UniProt Q13568-2, residues 1-514, S451D/S453D/S456D/S462D)
Method: protein-binding microarray
Molecule type: double-stranded DNA, one strand shown
Medium: in vitro
Tested at: 940 nM top
Notes: 60-bp whole probe
With: salmon DNA 0.4 mg/ml
Relative to: random background probes
Direction: higher = stronger binding
Endpoint: fitted relative affinity
All sequences stand within: GCCTAGCAC … GTCTTGATTCGCTTGACGCTGCTG
GACGCTCTCAGACTGGAGACGTGCTAG: 0.0935 z-score
GACGGTTACGACTTTCGGGACGTGCTA: 0.922 z-score
TTAGAACTGAGTATAGATTAGTGCTAG: -0.503 z-score
GACGGTTTCCTTCTCCTGGCGTGCTAG: 2.28 z-score
TTAGGGCTCCTTATCCTTTAGTGCTAG: 0.105 z-score
GATGGTTTCGACTATCGGGACGTGCTA: 9.71 z-score
TTAGGTATCGACACTGAGTTAGTGCTA: 4.55 z-score
GACGGACTGGGTATCCGGACGTGCTAG: -0.613 z-score
TAAGGTTTCGGGTTTCGGTTAGTGCTA: 9.12 z-score
TTAGGTATCCACTATCGGTTAGTGCTA: 1.03 z-score
CCCAGGACCCTGGAACTGGCGTGCTAG: -0.888 z-score
TGGCAGCATTCTTGGAAATCGTGCTAG: -0.675 z-score
GGGAGCTATTAATTATTTTGGTGCTAG: 0.0503 z-score
GACGGTTCCCTTTTTCTGACGTGCTAG: 1.2 z-score
CTAGGACTGGGGTATCGGTTAGTGCTA: 2.58 z-score
GACGGTTTCCTACTGCTGAGGTGCTAG: 0.316 z-score
GACGGTCTCGGTCCCGGGACGTGCTAG: 3.08 z-score
TCAACACTAGTTTTCATACTGTGCTAG: 0.434 z-score
TCATGTATATCTTCAGCACTGTGCTAG: 0.321 z-score

Study 2
Target: Histone acetyltransferase KAT6A, winged helix 1, GST fusion (KAT6A, Homo sapiens, UniProt Q92794, residues 1-85)
Method: protein binding microarray
Molecule type: double-stranded DNA, one strand shown
Medium: in vitro
Tested at: not given
Notes: 8-mer, flanks averaged, mean of 2 arrays, mostly near background
Relative to: not given
Direction: higher = stronger binding
Endpoint: E-score
Construct (chain): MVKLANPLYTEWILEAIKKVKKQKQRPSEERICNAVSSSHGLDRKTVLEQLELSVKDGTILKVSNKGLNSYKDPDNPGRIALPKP
CACTCAAG: -0.279
TAGAAAAA: -0.121
TCGATTCA: -0.114
AGAAAAGA: -0.12
CGCTCCAA: 0.0942
ACGCGATA: 0.204
GGCAGACA: 0.0208
AGATGGGA: -0.217
ATCGGCAT: 0.131
CATAAACG: 0.00281
CTCCTAAA: -0.271
CGAATTGC: 0.162
ACAAGAGT: -0.332
ACCCCGGG: 0.364
ATTGTGAC: -0.203
GACTAGCA: -0.0645
ACAAGCTA: -0.211
GAAGTGTA: -0.0584
AATTCCCT: -0.232
AGGCCAGC: 0.00931
CGTTATGA: -0.0252
ATTCAGCC: 0.0249
GCGAACGA: -0.0419
ACAATTTA: -0.165
GATCAGGA: -0.175

Study 3
Target: RNA binding protein fox-1 homolog 2, RRM domain, GST-SBP tag (RBFOX2, Homo sapiens, UniProt O43251-10, residues 100-194)
Method: RNA Bind-n-Seq
Molecule type: RNA
Medium: in vitro
Tested at: 365 nM
Notes: natural RNA segment, single round, ends assumed
Relative to: no-protein control
Direction: higher = stronger binding
Endpoint: RBNS enrichment (R)
Residues (chain): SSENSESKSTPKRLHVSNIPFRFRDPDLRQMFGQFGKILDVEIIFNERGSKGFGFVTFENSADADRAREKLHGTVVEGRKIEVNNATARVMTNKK
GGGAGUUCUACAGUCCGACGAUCCUGUACAGAGGACCAUGGAGCCUUCCUGAAAGGUCUCGGCCAUCUGUUCUUCUCCACCUCCUCAUGGGAUAGGAACUGAAAGAGAACUCAAGGGUUGUCACUUUCCUAGAUGGAAUUCUCGGGUGCCAA: 0.27
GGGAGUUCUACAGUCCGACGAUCUGUGGAGGUGACUCACAGCAGACUGACAGUGGUCAGGCUGAGCUUUCUGCUAAGGUGGUGAGGUCGCCAACACUGGCAUGUCUCGGUAGUGGUUUGGGCAAAUUUCUGCAUGGAAUUCUCGGGUGCCAA: 3.82
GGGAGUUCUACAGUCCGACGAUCUGGUCCUGGAACUCUUCACCAGGGAGGGAGCCCUGCGGGGGCCGCAGCUUUGUGGAGGGAGCCGCCGUGCUUCUGUCACCUGCUCCCUUUCUUGCGUCUCCCUGUGAUGGUGGAAUUCUCGGGUGCCAA: 0.308
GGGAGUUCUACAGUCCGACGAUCCAAACAAAUAAAUUGUAAUCAAAAGAGCUCUAAAUUUGUAAUUUCUUUCUCCUUUCAAAAAAUGUCUACUUUGUUUUGGUCCUAGGCAUUAGGUAAUAUAACUGAUAAUAUGGAAUUCUCGGGUGCCAA: 0.396
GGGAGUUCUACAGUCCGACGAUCGGCCUGGCCAGCUAUCCUUCUCUAUGCAAAUGCGUCAAAGCCAUGACUGCUGGAACCCAAAACUGACAAGGUUUAUUUUUUCCAGAGCCGGUGGCUGGUCUUCCAUUUACUGGAAUUCUCGGGUGCCAA: 0.256
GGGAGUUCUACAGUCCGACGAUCAAAGAGUCUAAAGGGGCCGGGAGAAGCAUGAGCGAGGGGCAGAUUCUAGUCGGGAGCCCAUGCCCUGGAAAUCCAUCUUUCUUCAUCUUUCCCAUUGACCACUUUGGGUUUGGAAUUCUCGGGUGCCAA: 0.468
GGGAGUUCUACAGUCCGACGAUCUAUACAGUUUUCCUUAAUUUGUUGACAUAUAAAUGGUAAAUUAUAUUUAGGCUUAUCCUGUUUUGAAAUGAUGGUAGUCAUCUUUCUUACUGCUACUUUCAUGUUGCUUUUGGAAUUCUCGGGUGCCAA: 0.233
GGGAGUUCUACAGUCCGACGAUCAUGCAUUAGAAGGUUUUUUUGUCGAUUAGUAAAAGUGCUUUCCAUGUUACUUUAUUCAGAGCUAAUAAGUGCUUUCCUUAGUUUUCUAGUAACUAGGUGUAAAAAUCAUGUGGAAUUCUCGGGUGCCAA: 0.393

Study 4
Target: RING finger protein unkempt homolog, zinc fingers 1-6, GST-SBP tag (UNK, Homo sapiens, UniProt Q9C0B0, residues 30-357)
Sequence of UniProt Q9C0B0 (30-357, looked up): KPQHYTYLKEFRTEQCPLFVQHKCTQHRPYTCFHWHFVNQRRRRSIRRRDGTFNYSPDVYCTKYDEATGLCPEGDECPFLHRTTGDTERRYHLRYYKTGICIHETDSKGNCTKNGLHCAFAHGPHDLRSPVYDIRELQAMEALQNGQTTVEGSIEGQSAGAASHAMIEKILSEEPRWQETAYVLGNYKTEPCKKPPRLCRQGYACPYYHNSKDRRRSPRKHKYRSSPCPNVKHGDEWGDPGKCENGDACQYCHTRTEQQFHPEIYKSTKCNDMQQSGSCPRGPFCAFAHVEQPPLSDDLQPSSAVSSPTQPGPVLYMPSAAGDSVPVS
Method: RNA Bind-n-Seq
Molecule type: RNA
Medium: in vitro
Tested at: not given
Notes: RNA with constant flanks, human-mouse chimeric sites, ends assumed
Relative to: input RNA pool
Direction: higher = stronger binding
Endpoint: bound/input enrichment
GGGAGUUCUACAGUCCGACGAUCAAAGCCCAAGUAUUUUGAAAAAACUCGAACAGAUUUGACAAGGGUAGCCAGCUUGGAGUCUAGCAAUUUUGCCAAUGGUUUACCAAUCUGGGGGCUUGUUUUUCUUUUCUUCUUUCAAAUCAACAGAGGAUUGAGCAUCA: 0.388 ratio
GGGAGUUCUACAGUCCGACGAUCCACAGAGGAGACCUCCUGUUCCUCACGAAUUUCCGGGAAGACCCAAUCAGAGCUGGUGAAAUAGUUGUUUUUAAGGUUGAAGGAAGAGACAUUCCGAUAGUUCACAGAGUAAUCAAGGUUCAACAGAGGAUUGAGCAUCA: 1.23 ratio
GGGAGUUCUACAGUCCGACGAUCCUGGCACUCUAUCAGAUAUAUUAAUUUUUAAAUGUAGAUGUAAUUUUAAAAAUGAAUGGCUAGUUUACACGUUUAACUAGGGUUUUACUAUAUAUGUGUACAUAUGUAUAUAUAUAUAUACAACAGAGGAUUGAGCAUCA: 7.97 ratio
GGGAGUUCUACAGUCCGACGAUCCCCCAAUACCAUUUGCAGGUCUGGAACUGCACUCUCUUUUUUAAAAAACAUGUAUACAUUUUAGGGCUGUAGACUUAUUUUCCUGGUUUUGUUUUUCAUUGCUGACUUUGAGCACAAGAACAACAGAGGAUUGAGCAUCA: 1.78 ratio
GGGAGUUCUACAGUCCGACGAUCUGUGCAUAUGAUGCUUGAGAUGGUUUUUGCAGAUGCAGAAAUCGCUGCAAGGUAAUCACAAUAGAUACAAGCGGUAUUUUAAACCUUUGAAAUAAAUGGAUGUAACUGUACCUUGGUACACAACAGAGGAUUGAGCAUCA: 0.222 ratio
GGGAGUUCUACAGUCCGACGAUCAAAGAGAAACUAAAGCAACUAAUAGAGAAGAGGAUUGGCAAAGAGAAUUUCAUAGAGAAACUAGGAUUUUAUUAGCAACAUGAGUUAGUAUUCCAGACGUCUCAGAAACCCCAGCCAAACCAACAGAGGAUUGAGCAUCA: 5 ratio
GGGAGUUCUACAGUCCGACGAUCAACUUCGUGCAUCGGUUUCCCUUUGUAGCUGUUUCAAUUGGCUUCCUUGUGAAUAAAGAGAUGGAGUUUGGAAUUGUGUACAGCUGUGUGGAAGGCAAGAUGUACACCGGCAGGAAAGGGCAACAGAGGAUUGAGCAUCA: 0.297 ratio
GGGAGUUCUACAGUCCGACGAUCUUAAUCCCCUUUACUGCUCCCCCACUUCUCAUGGUAAUAACAAAGUCUUAUAUCCCCGUCCUAGCUUUUACUCAGAUGGCUUAUGGAGCCAGUUUCCUAGCUUUCUUGGGAGGGAUCAGACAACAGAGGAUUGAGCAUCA: 0.567 ratio

A few entries again (study 2):
AGATGGGA: -0.217
ATCGGCAT: 0.131
CATAAACG: 0.00281
